Published values gathered from unrelated publications.
Each numbered part is a random draw from the data of one study; scales do not carry over between parts.

Sample 1
Target: Histone acetyltransferase KAT6A, both winged helices, GST fusion (KAT6A, Homo sapiens, UniProt Q92794, residues 1-181)
Technique: protein binding microarray
Molecule type: double-stranded DNA, one strand shown
Sample: in vitro
Tested at: not given
Notes: 8-mer, flanks averaged, mean of 2 arrays, mostly near background
Baseline: not given
Reading: higher = stronger binding
Residues (chain): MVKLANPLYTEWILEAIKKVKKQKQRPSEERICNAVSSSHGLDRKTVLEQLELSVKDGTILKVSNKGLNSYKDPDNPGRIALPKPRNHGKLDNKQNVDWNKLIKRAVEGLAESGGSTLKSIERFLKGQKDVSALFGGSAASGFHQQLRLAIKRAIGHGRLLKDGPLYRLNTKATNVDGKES
For `TCGAGGCA`, the E-score was -0.154.
`GAATTTGA` has an E-score of -0.0316.
For `ATACGACG`, the E-score was 0.0872.
For `ACAGCTGC`, the E-score was -0.13.
`GAGAAACA` gave an E-score of -0.0709.
`AATTTTGC` gave an E-score of 0.024.
With `AAAGCCGT` the E-score was 0.296.
For `AATTAGGA`, the E-score was -0.0737.
`ATCTAGTA` gave an E-score of -0.014.
`AGAGCTAC` has an E-score of -0.0386.
`AGGCACTA` gave an E-score of -0.102.
For `GAAGCACC`, the E-score was -0.185.
`CGGGCAAC` has an E-score of 0.259.
For `ACCTCTAA`, the E-score was -0.0251.
`ACTACTTA` gave an E-score of -0.122.
With `AGTGTAAG` the E-score was -0.133.
`CATGAGTC` has an E-score of -0.0495.
For `AACGCACG`, the E-score was 0.214.
With `CTAACCGC` the E-score was 0.162.
`ATGTAGGA` has an E-score of -0.192.
`TCATAGAA` gave an E-score of 0.00507.
`GCTCCTAC` gave an E-score of -0.0919.
The E-score of `ACGCGCCA` is reported as 0.197.
The E-score of `CACTGGGC` is reported as -0.113.
With `AAGGGATG` the E-score was -0.232.

Sample 2
Target: Sal-like protein 4, full length isoform B (SALL4, Homo sapiens, UniProt Q9UJQ4-2, residues 1-616)
Technique: universal PBM
Molecule type: double-stranded DNA, one strand shown
Sample: in vitro
Tested at: not given
Notes: 8-mer, flanks averaged, mean of replicates
Reading: higher = stronger binding
Construct (chain): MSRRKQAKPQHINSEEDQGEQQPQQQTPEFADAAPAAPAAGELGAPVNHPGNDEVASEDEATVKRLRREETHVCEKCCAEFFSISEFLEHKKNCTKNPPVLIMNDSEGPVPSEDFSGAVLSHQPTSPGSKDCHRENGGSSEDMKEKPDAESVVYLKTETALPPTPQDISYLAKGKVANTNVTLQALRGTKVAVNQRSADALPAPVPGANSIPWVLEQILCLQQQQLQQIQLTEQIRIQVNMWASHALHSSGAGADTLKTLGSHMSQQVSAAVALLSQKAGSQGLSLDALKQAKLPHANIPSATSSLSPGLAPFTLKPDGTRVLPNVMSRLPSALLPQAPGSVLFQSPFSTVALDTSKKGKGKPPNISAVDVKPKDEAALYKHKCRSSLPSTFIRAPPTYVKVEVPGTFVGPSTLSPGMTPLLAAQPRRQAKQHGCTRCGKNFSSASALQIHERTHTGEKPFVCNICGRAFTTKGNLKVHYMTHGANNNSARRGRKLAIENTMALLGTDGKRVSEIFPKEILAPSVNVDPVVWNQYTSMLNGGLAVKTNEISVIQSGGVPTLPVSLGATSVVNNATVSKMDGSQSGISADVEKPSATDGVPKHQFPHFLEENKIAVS
For `CTGCAATA`, the E-score was 0.313.
The E-score of `ACGAAGTC` is reported as -0.0271.
For `CCCATGTA`, the E-score was 0.00987.
`CAAAGGAC` gave an E-score of -0.141.
For `AGAACGCT`, the E-score was -0.0726.
With `ACCTTGCG` the E-score was -0.123.
With `TCGGGCAA` the E-score was -0.125.
With `CCGTCCAA` the E-score was -0.0296.
With `GACTCGGC` the E-score was -0.361.
`AGCTCCTC` has an E-score of -0.174.
`CCATGATA` has an E-score of 0.171.
`ACAATAAT` has an E-score of 0.426.
`TTCGACAA` has an E-score of 0.221.
`GGCTTGAC` gave an E-score of -0.202.
`GCGTACCA` has an E-score of -0.068.
`AATTTTCT` has an E-score of 0.191.
With `ATAAGTTA` the E-score was 0.349.
With `ACCAGAAA` the E-score was 0.166.
`ACCTATTG` has an E-score of 0.208.
With `AATGGTGA` the E-score was 0.107.
The E-score of `ACAGACTC` is reported as -0.0961.
The E-score of `CTGCGACA` is reported as -0.15.
`CCCCTGAC` gave an E-score of -0.212.
For `GCTATGGA`, the E-score was 0.0915.
`GCGTGCAC` has an E-score of -0.158.

Sample 3
Target: RNA binding protein fox-1 homolog 2, RRM domain, GST-SBP tag (RBFOX2, Homo sapiens, UniProt O43251-10, residues 100-194)
Technique: RNA Bind-n-Seq
Molecule type: RNA
Sample: in vitro
Tested at: 365 nM
Notes: natural RNA segment, single round, ends assumed
Baseline: no-protein control
Reading: higher = stronger binding
Shared flanks, not repeated: GGGAGUUCUACAGUCCGACGAUC … UGGAAUUCUCGGGUGCCAA
Construct (chain): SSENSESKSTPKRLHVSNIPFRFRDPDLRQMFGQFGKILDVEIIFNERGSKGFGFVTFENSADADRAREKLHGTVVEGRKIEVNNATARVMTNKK
`UACAAUUGCCCCUUUUUAUAUAUACACCUCCACAAGACAUGCGUAUUAAACAGAUUGUCUCAUCGUUGCAUCUAUUUUCCAUGUAUUCAUCAAGAGACCAUUUUAUGACA`: “RBNS enrichment (R)” 0.689.
For `UUGUCUAUUAACUGUGAUAAUCUGACUUGAGUCAGAUUGAAUAUUUGGAGUGCUUCCCCAGAAUAACCACUUAUUUUUGAAGCUAUCAUGUGAAGUAUUUUUUUAAAACA`, “RBNS enrichment (R)” read 0.793.
For `AUAUUAUAUUUUUUCACUAUAGGUACAUGUAACAGUAAAACGUGUAACAGCAAAGUAUAUAUUUGAUGUUUUCUGUCUUUCAUGAUAUUGUGCUAACAAGUUGUGCUAAU`, “RBNS enrichment (R)” read 0.335.
Under “RBNS enrichment (R)”, `AGCACAACACAAAUUCCAUCCAAGAGGAGACUCUUUCCCAUGGUGUUGUCCUGGGUCUGGCAGUGGUUGUGAUUUAUAGCCAAUUGUGCUAAAGGAUUUUUCUACCUUGA` is recorded as 0.287.
For `AGACAUGCUAGGAUUAAGGGUGUGUGCCACUAUGCCUGGCUUAAGUCUUUUUCUCACUCAAACCUUCUCUCUGUAGAAGCAGAAAAGUUGCUGAUAGCCAGGAAAGAGAG`, “RBNS enrichment (R)” read 0.386.
Under “RBNS enrichment (R)”, `UGGAUGAAGCCUGAGAGGCCAGAUUCCCUGUCACCUCUGCCCAGCUCAGCUGGAUCAGGCAUCUACACACCCCAUUCUUCCAGGGGCCAGUGUCCACACCUGCAUGUAGG` is recorded as 3.28.
`GCAGAGGGAUACUUGAGUAAGGUUGGGUGGUUAAACCCCAAGCAUCCUACUGGAGUGUCUGUCCAGGGAGAAGCCAAGGGGAGCAUCAGAAGGAGCCACUGGAGCCAGAG` — result for “RBNS enrichment (R)”: 0.959.
Under “RBNS enrichment (R)”, `UCAUCCCCAGCGAGGGUUUCCUCUCAGUCAUUUGUUUACCAGAAAGGAUGAAACUUGCCUGUUGGGGCGGAGCUGUCGCUCCUGAGGGGCCCCACCUUUACAUCCCAUCC` is recorded as 1.08.

Sample 4
Target: Interferon regulatory factor 5, full length, phosphomimetic (IRF5, Homo sapiens, UniProt Q13568-2, residues 1-514, K96S/S451D/S453D/S456D/S462D)
Technique: protein-binding microarray
Molecule type: double-stranded DNA, one strand shown
Sample: in vitro
Tested at: 250 nM
Notes: 60-bp whole probe
Added: salmon DNA 0.4 mg/ml
Baseline: random background probes
Reading: higher = stronger binding
Shared flanks, not repeated: GCCTAGCAC … GTCTTGATTCGCTTGACGCTGCTG
`TTAGGACTGGGGTTTCGATTAGTGCTA` has a log fluorescence of 5 z-score.
The log fluorescence of `TTAGGTTTCGGACTGGTTTAGTGCTAG` is reported as 5.49 z-score.
The log fluorescence of `GACGGTTTCGACTATCGTGACGTGCTA` is reported as 6.4 z-score.
With `TTAGGACTGGGTATCGGATAGTGCTAG` the log fluorescence was 0.692 z-score.
`TTCGGTCTCGGTCTCGGTTAGTGCTAG` gave a log fluorescence of 2.06 z-score.
`TGAGATTTCAGTTCCGATTAGTGCTAG` has a log fluorescence of 2.3 z-score.
`TTAGAAGTGAGACTGGATTAGTGCTAG` gave a log fluorescence of -0.367 z-score.
`GACGATTTCAGACTGGAAACGTGCTAG` gave a log fluorescence of 0.243 z-score.
`TTAGGTTTCAGTTCCGATTAGTGCTAG` has a log fluorescence of 4.75 z-score.
For `TTCGATCTCAGTATCGATTAGTGCTAG`, the log fluorescence was 6.81 z-score.
The log fluorescence of `GACGAGCTGGGGACTGGAGACGTGCTA` is reported as -0.551 z-score.
The log fluorescence of `TCATCTTTCTGTTTTCTACTGTGCTAG` is reported as 5.47 z-score.
For `GACGATTTCAGGCTGGAGACGTGCTAG`, the log fluorescence was 0.354 z-score.
For `ATGACTCCCTCTCTGGCCAAGTGCTAG`, the log fluorescence was -0.433 z-score.
For `GACGATATCAGTTTCGAGATGTGCTAG`, the log fluorescence was 6.65 z-score.
The log fluorescence of `TTAGGACTGGACACTGGGTTTGTGCTA` is reported as -0.3 z-score.
`AACAGAGGAATGGATACAGAGTGCTAG` gave a log fluorescence of 0.163 z-score.
`TCATTTTTAGAAATTTTTACTGTGCTA` has a log fluorescence of 1.23 z-score.
The log fluorescence of `GACGAACTGAGGCTCGAGACGTGCTAG` is reported as -0.313 z-score.

Excerpt of the above (sample 2):
The E-score of `CTGCGACA` is reported as -0.15.
`CCATGATA` has an E-score of 0.171.
`CCCCTGAC` gave an E-score of -0.212.
`GCGTGCAC` has an E-score of -0.158.
`TTCGACAA` has an E-score of 0.221.
